Measurements pooled from the literature.
Parts stem from different laboratories: compare values within a part only. Positions count from the first letter of the parent shown.

Study 1
Target: CCNE2, cyclin fold, Cln2 fusion (human)
Technique: yeast growth competition, sequencing
Matrix: yeast
Setting: strong parent motif
Reference: not given
Direction: higher = stronger binding
Parent: RBL2 docking peptide (human); STTRRRLFVENDS; partner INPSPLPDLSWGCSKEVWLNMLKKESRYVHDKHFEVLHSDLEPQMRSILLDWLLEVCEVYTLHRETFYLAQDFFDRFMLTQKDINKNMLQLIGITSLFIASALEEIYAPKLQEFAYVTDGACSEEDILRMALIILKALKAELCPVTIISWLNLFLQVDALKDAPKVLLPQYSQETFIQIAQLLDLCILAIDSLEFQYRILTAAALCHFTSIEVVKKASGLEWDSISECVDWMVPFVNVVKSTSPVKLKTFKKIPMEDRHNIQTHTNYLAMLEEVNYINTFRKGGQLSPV
Substitution	normalised enrichment score
R5N	0.144
L7R	0.695
V9P	3.34
R6G	0.34
N11Q	4.43
L7M	0.606
D12I	3.93
D12T	3.32
R6L	1.28
R4L	-0.887
L7D	0.807
S13V	4.51
T2D	2.97
T2H	5.02
R5C	0.745
T2K	5.78
T3V	7.77
R5A	-0.0294
R6C	1.72
D12P	4.48
N11R	4.14

Study 2
Target: Histone acetyltransferase KAT6A, winged helix 2, GST fusion (KAT6A, Homo sapiens, UniProt Q92794, residues 85-181)
Technique: protein binding microarray
Molecule type: double-stranded DNA, one strand shown
Matrix: in vitro
Tested at: not given
Setting: 8-mer, flanks averaged, mean of 2 arrays, mostly near background
Reference: not given
Direction: higher = stronger binding
Construct (chain): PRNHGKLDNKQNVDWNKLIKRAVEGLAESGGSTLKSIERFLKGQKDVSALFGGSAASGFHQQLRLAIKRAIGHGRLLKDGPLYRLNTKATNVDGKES
Strand	E-score
AGAGAACA	0.0926
CAACCTTA	-0.108
TTATGCAA	0.114
ACGTTCCT	-0.177
GCCAGGGA	0.0317
ATCTAATC	0.0434
GTTGAGCA	-0.00937
GTAAATAC	-0.0444
AATCCACA	-0.0954
CATAGGAA	-0.12
GCGTCAAA	0.102
ATTCATAG	0.137
ATGTAAAT	0.00997
ACACCGAG	0.144
TATAAACA	0.0829
ATGACAGG	0.0114
CGGAAAAG	-0.0896
GGAACAAC	0.0452
AACGCCTA	-0.124
AGTCAGCA	0.141
AAAATTTT	0.0882
ACGCGTGC	-0.0308
CCACACCC	0.0841
TACACCCA	0.0389
ACTGAGAA	-0.00259

Study 3
Target: ABI1, truncated, D143A, DHFR fusion (Arabidopsis thaliana)
Technique: DHFR PCA, deep sequencing
Matrix: yeast
Setting: methotrexate growth selection, single substitutions
Added: (+)-ABA 0 µM
Reference: wild-type fitted maximum
Direction: higher = stronger binding
Parent: PYL1, truncated, DHFR fusion (Arabidopsis thaliana); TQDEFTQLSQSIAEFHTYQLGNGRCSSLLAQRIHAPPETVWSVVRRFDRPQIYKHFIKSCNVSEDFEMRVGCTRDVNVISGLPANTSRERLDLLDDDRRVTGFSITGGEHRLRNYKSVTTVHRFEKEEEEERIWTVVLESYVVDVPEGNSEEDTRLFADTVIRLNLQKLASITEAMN; partner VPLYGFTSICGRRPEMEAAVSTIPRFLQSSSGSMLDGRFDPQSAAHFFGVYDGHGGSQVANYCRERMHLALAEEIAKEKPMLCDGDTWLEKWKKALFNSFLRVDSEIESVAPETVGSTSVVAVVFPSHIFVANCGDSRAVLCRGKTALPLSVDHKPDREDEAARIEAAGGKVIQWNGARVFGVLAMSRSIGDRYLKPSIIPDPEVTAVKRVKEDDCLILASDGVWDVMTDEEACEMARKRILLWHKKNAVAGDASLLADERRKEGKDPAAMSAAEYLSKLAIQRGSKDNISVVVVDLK
Substitution	relative binding score [%]
V43I	44.4
G108Q	2.47
T106R	-0.568
V121H	-4.55
M176K	3.59
K168H	27.5
V78Q	8.21
R32T	35.3
L166M	2.8
T154S	-9
R123I	-14.2
F56S	-0.736
Q167H	8.72
Q31C	-1.62
Q7L	18
R24Q	63.1
F56K	-0.174

Study 4
Target: TEF, bZIP domain (human)
Technique: DHFR protein complementation
Matrix: yeast
Setting: single substitutions, most at no-binding floor
Reference: wild-type JUN-FOS pair
Direction: higher = stronger binding
Parent: JUN, bZIP domain (human); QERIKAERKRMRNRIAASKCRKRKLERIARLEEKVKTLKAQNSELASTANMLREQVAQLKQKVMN; partner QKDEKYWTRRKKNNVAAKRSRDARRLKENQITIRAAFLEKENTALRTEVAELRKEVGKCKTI
Substitution	binding fitness
I28N	-1.31 natural log
L38V	-1.5 natural log
V56G	-1.5 natural log
Q41D	-1.38 natural log
V35R	-1.53 natural log
V56H	-1.5 natural log
K36A	-1.48 natural log
Q41L	-1.45 natural log
L45S	-1.43 natural log
A40L	-1.48 natural log
A49Q	-1.43 natural log
L59T	-1.57 natural log
R30S	-1.26 natural log
V35K	-1.21 natural log
Q55N	-1.46 natural log
Q55D	-1.53 natural log
E32W	-1.49 natural log
T48K	-1.43 natural log
N42E	-1.41 natural log
E32A	-1.29 natural log
A46V	-1.5 natural log
E32I	-1.38 natural log
T48A	-1.32 natural log
I28P	-1.4 natural log

Excerpt of the above (study 2):
Strand	E-score
CAACCTTA	-0.108
TTATGCAA	0.114
ACGTTCCT	-0.177
GCCAGGGA	0.0317
ATCTAATC	0.0434
GTTGAGCA	-0.00937
GTAAATAC	-0.0444
AATCCACA	-0.0954
CATAGGAA	-0.12
GCGTCAAA	0.102
ATTCATAG	0.137
ATGTAAAT	0.00997
ACACCGAG	0.144
